Assay results collected from several papers.
Numbered parts are unrelated; each lists some results of a single study. Changes are numbered by the printed parent chain.

Series 1
Target: CCNE1, cyclin fold, Cln2 fusion (human)
Method: yeast growth competition, sequencing
Medium: yeast
Setting: weak parent motif
Relative to: not given
Reading: higher = stronger binding
Starting sequence: BORA docking peptide (human); SSLRRKLFLDGNG
| Variant | normalised enrichment score |
| --- | --- |
| R5A | 0.548 |
| L9A | 0.0954 |
| F8A | 0.471 |
| F8L | 0.438 |

Series 2
Target: Prothrombin, mature alpha-thrombin (F2, Homo sapiens, UniProt P00734)
Method: aptamer microarray, sandwich
Form: DNA with 2'F-ANA
Medium: in vitro
Concentration: 200 nM
Setting: whole 15-mer aptamer, many near background
Added: Cy3 exosite-II aptamer, 400 nM
Reading: higher = stronger binding
Strand: GGTTGGTGTGGTTGG
| Modification | mean fluorescence intensity [a.u.] |
| --- | --- |
| 2'F-ANA at 1 6 8 12 | 454 |
| 2'F-ANA at 5 7 10 11 12 13 15 | 64.9 |
| 2'F-ANA at 1 2 3 4 5 7 8 10 11 12 | 49.2 |
| 2'F-ANA at 3 6 7 11 | 983 |
| 2'F-ANA at 4 5 9 13 15 | 48.4 |
| 2'F-ANA at 2 4 5 6 7 8 10 11 12 13 15 | 56.4 |
| 2'F-ANA at 3 6 11 13 15 | 767 |

Series 3
Target: RING finger protein unkempt homolog, zinc fingers 1-6, SBP tag (UNK, Homo sapiens, UniProt Q9C0B0, residues 30-357)
UniProt Q9C0B0, sequence (30-357, looked up): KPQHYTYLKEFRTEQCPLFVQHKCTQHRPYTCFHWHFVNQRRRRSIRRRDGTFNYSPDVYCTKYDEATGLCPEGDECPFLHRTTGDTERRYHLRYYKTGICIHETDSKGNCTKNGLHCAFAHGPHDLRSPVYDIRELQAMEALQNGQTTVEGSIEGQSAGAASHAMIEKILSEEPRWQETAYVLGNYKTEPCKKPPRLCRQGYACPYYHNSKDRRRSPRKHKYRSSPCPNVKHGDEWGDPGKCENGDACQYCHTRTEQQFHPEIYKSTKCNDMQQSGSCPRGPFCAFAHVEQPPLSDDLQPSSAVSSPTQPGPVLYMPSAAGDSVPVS
Method: RNA Bind-n-Seq
Form: RNA
Medium: in vitro
Concentration: 100 nM
Setting: RNA with constant flanks, vertebrate orthologous sites, ends assumed
Relative to: input RNA pool
Reading: higher = stronger binding
Constant ends, left off below: GGGAGUUCUACAGUCCGACGAUC … CAACAGAGGAUUGAGCAUCA
| Strand | bound/input enrichment |
| --- | --- |
| AAACUAUACUUAUACUGUCUUACAGCAUUUGUGAAUAUUUUAUGAGUCAACAUGUAAAGCUAGAGUCUUUGUUAAAUCAGUGAGAUUAAUGUAAAUAAAAUGUUUUUAUUUGCUUUGAAA | 0.213 ratio |
| CUAGUCAGGGAUAACCGUUCACUUAUUUUAAUAAAGAAAUGAGAUGCUGAAAACCACAUUAGGACUUAGCUGGAGAAUUUAAAUAAGCUUCUUUUAGGUGAUUCUAAGAUUCAGAAUCAC | 0.414 ratio |
| AGGAAAUGUUGGCUGCAAACCCUCAGGAUCGUCCCGACGCUUUUGAGCUAGAACUUAGAUUAGUCCAAAUUGCUUUUAAAGAUAGUGGCUGGGAUACGUGACACAUGGAUUACUGGGAAA | 1.4 ratio |
| GAAGAGCUGAGGGGAGUAAGGCCGUGAUUCCUCAGAGGGUUUUUCCUUGUUUUUAGUUUGCUAGGGGUUGGGUGGGUUGUGGUACACACCUUCUCGGAGGCGGGAGCUCUAGUGAUACCU | 3.94 ratio |
| GAUCAAUAGAAUUACAUAAUACUAAAGUUGCAGUUGAAAGGAUAUCCAAGUAUGUGUUCGUAGUUACUAAAAGAAUUAUAGCUGUUAUUGCCUUGUAUUUAUAGCCCUUGUUUCAGGUUU | 2.46 ratio |
| CAGCUGAUUCACUCAUUGGCAGAGCUGCACAUAUAGCUGUUCUUGAUUCAGAAAUAUUUUUAGAAAAAUUCUUUCUGGUUGCUGCCCUCAAAUAUUUCCAGUAGGAUAAAACAUUGUUAA | 0.983 ratio |
| UACUAGCGUCAUACCAGCAUAUUAACUAGUCAUAUGUGCACAGCUUAAAAGGUAACAGUUUAGUUAUAUUUUUUAAUUUAAGAACGGCUUUUUCCCAAGACUGAAAAAGAAGCUACAAUU | 2.58 ratio |
| CCUUUCAGACUGUCCCCGGCCAGAGCCAAGGACCUCACUUGUUUCAUCAAGAACCUGCAUUUAAAACAACUUUUUAAACUGUUAAAACAGGAAGAGAUGUGACUAAAACACCACCUCAAA | 0.212 ratio |

Single results of other studies
| Substance | target | test | test system | conditions | how to read | endpoint | value |
| --- | --- | --- | --- | --- | --- | --- | --- |
| PhoQ, residues 284 288 289 292 302 303 AMDMFI | PhoP, residues 12 14 15 18 19 IQSYL (Escherichia coli, UniProt P23836) | Sort-seq, item: YFP reporter | E. coli | PhoQ-PhoP variant library, added: 10 µM Mg2+ | relative to: high Mg2+ state, higher = stronger signaling | fold induction | 0.258 |
